# Measurements from different studies.
# A part holds a random share of what one study measured.

# Study 1 — technique: RNA Bind-n-Seq; molecule type: RNA; sample: in vitro; concentration: 365 nM; baseline: no-protein control; reading: higher = stronger binding
# Target: RNA binding protein fox-1 homolog 2, RRM domain, GST-SBP tag (RBFOX2, Homo sapiens, UniProt O43251-10, residues 100-194)
# Setting: natural RNA segment, single round, ends assumed
# All sequences stand within: GGGAGUUCUACAGUCCGACGAUC … UGGAAUUCUCGGGUGCCAA
# Construct (chain): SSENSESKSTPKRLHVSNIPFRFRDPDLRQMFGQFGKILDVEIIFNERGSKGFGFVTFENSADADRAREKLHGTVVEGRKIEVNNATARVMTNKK
Sequence,RBNS enrichment (R)
UUCACCUAGGCUUUCACAGCAAAAGUUGGGUGGAAAGAGAAAUUUUUAUUUGUGAUGACACAAUAGAGCCAGAAUAUUAGCUAACAACGUUGAAGGAGGUGUUGGGUGUU,0.575
GCAUGAUUUUCCUUGGGAUGCAAAUCUGAAACAGUCCUUUAACAUGAACAAUCUGCAGCACACUGAAGGGCAUUCUGAAUUGAAGCUUGGAGAACUGCACUAAACCCACU,1.29
GGAGCACUCACAGGACUCACCCGGGUACGAAGAUUCCAACAGGAUGAUGCUCACAUAUUCUGUGCCAUGGAGCAGGUUGAAGAUGAAAUAAAAGGUUGUUUGGAUUUUCU,0.905
UUUAUCUGUAAGAACACAAAUUUGGCAUUACAGUUAAGGGAGUGAUUUGAAUUGAUUGACAAGUCCUGGCAUGUGACAAUUUUACUAAAUUACCAAGUUUGGUUUUUAAU,1.84
GCGGAAUGUAAGAUACGUCUCUAUGCCAAAUGGAGUUGUAGAAUGUACCCUCUCAGCCCAUAAACAGGAGGAAACCAUAUGUGAACACUACAGCCUCUGGCGAGGGCUCU,0.541
ACCUAAUUAUCCAGCAUAUAUGUAAGAAACAUAGCAGCGAUGGUAUUCGAUCUGUGCCAUGACUCUUCUGAAUGUUUGGACAGGUUAGAGUUGGGGACCCCUGUUGGCCA,0.4
CUGCAACUGAGCCACCCACUCCCAAACAGGAAACCCUGGUGAAGGUUCAGGAAGCACGGAGAUUCUCUCCAACAAAGGUCCAGUUAGGAAACGACGCUGAGAGGAUGACG,0.204
UCAAUUUCAAAGCUCCAUUUCAUAAAGGGGCUACUUUGAAGGAGUUAAGAUGGAAGACUUCCUUCUUGACAAAUUGUGUUUUUAGUGAAUUUCUUAAACCGUUUUAUUUA,0.609

# Study 2 — technique: RNA Bind-n-Seq; molecule type: RNA; sample: in vitro; concentration: not given; setting: RNA with constant flanks, ends assumed; baseline: input RNA pool; reading: higher = stronger binding
# Target: RING finger protein unkempt homolog, zinc fingers 1-6, GST-SBP tag (UNK, Homo sapiens, UniProt Q9C0B0, residues 30-357)
# All sequences stand within: GGGAGUUCUACAGUCCGACGAUC … CAACAGAGGAUUGAGCAUCA
# Construct (chain): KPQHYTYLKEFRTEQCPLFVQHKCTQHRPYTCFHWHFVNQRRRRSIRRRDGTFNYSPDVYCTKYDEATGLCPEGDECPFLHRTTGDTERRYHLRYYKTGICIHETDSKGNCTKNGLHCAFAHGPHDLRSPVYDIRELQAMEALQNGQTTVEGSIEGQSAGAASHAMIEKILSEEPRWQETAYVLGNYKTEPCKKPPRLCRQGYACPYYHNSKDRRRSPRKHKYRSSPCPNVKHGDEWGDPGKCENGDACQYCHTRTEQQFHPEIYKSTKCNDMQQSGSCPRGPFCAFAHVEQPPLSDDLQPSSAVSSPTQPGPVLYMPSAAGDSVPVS
Sequence,bound/input enrichment [ratio]
GCCAAGGCCAUCCAGCUGAACAGCAACAGCGUCCAGGCUCUGUUACUCAAGGGGGCGGCGCUCCGGAACAUGGGGAGGGUCCAGGAAGCCAUCAUACACUUUCGGGAGGCCAUCAGGCUU,0.0956
CUUCUACCGGGCGCCCCACGGGCCGAAGCCGCUCCAGUGUGCUGCUCUGCUCGUUACAACUCCGCAAUUUUGGCCUUUUUUGGUUUCUUCAUUGUGUAUGCAUUACGUGUGAAUCUGAGU,0.0948
UCCAUGGAUUCUGAGGUCUUGGAGAUGUCACCUGAAAAGUCAGAUGGAAUAGUGGAGGGGACCGAUGUAAAUGGACCAAAAGCACAGCUGAUGCUGCGGUACCCAGAUGGAAAAAGGGAA,0.486
AGAGAAGAGUUGGUUGAUCGUGUUUUUGAUGAAAGCCUCAACUUCCGAAAGAUUCCUCCAUCCGUUCAUUCCAAAACACCAGAAGGAAACAACGGUCGAUCUGGUGAUCCAAGACCUCAA,0.116
UUAAUAGGCUUAAUAAUUGUUGGCAAAGAUCCUUUUGCUUUUUUCGGCAUGCAAGCUCCCCGCAUCUGGCAGUGGGGCCAAGAAAAUAAGGUUUAUGCAUGUAUGAUGGUUUUCUUCCUG,1.02
AAUAGUGGAGAAGAAUUAGAAUCCUACAAGGGACACUUUGGUCCUAUUCACUGUGUGAGAUUCCGUCCUGAUGGAGAACUCUAUGCCAGUGGUUCAGAAGAUGGAACAUUGAGACUAUGG,0.305
AAAGUGAAACUGGCAGCUGUGGAUGCUACAGUCAAUCAGGUUCUGGCCUCCCGAUACGGGAUCCGAGGAUUUCCUACAAUCAAGAUAUUUCAGAAAGGCGAGUCUCCUGUGGAUUAUGAC,0.169
GAAGCACAGCGAUGGCAGGCAAGGCUGAUUUGGAGAGGAAGGUGAUGUUGGCAUUUCUCAACCCGGAAUGCACAGAGUACCACUCAAUGGUGAGCUUGCAAGAUUUGCACAAACUCAUGG,0.149

# Study 3 — technique: protein binding microarray; molecule type: double-stranded DNA, one strand shown; sample: in vitro; concentration: not given; baseline: not given; reading: higher = stronger binding
# Target: Histone acetyltransferase KAT6A, winged helix 2, GST fusion (KAT6A, Homo sapiens, UniProt Q92794, residues 85-181)
# Setting: 8-mer, flanks averaged, mean of 2 arrays, mostly near background
# Target sequence (chain): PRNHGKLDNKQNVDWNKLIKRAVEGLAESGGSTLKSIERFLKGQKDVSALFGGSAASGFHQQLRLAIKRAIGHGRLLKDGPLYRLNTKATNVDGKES
Sequence,E-score
GGAGTAAC,0.00188
CACTTTTC,-0.0946
AGCGGAAA,0.0595
GTTGCCAA,-0.0634
ACGGGCCA,0.0659
GCTAATAC,0.185
ACGCTCCC,-0.0272
AACGTACG,-0.249
AGTGTGCA,0.0322
CGCCATAA,0.0792
AGGACAGC,0.0549
GGCAAGTA,-0.0212
CCCCGGAA,0.0101
GATATTGA,-0.0754
CCCTTCCC,0.105
GATTGTAC,-0.279
ACTTTTTA,-0.0146
AGGGGGAA,-0.0351
ACAGGGAT,-0.0158
GCGGAATA,0.117
CTAACTAC,-0.112
AATACGGT,-0.104
AAGTAGTG,-0.219
TTGAAAAA,0.11
AAGTGGCT,-0.0889

# Study 4 — technique: RNA Bind-n-Seq; molecule type: RNA; sample: in vitro; concentration: 200 nM; setting: whole 134-nt RNA, ends assumed; together with: 150 mM KCl; baseline: input library; reading: higher = stronger binding
# Target: Ras GTPase-activating protein-binding protein 1, full length (G3BP1, Homo sapiens, UniProt Q13283)
# Sequence of UniProt Q13283 (whole entry, looked up): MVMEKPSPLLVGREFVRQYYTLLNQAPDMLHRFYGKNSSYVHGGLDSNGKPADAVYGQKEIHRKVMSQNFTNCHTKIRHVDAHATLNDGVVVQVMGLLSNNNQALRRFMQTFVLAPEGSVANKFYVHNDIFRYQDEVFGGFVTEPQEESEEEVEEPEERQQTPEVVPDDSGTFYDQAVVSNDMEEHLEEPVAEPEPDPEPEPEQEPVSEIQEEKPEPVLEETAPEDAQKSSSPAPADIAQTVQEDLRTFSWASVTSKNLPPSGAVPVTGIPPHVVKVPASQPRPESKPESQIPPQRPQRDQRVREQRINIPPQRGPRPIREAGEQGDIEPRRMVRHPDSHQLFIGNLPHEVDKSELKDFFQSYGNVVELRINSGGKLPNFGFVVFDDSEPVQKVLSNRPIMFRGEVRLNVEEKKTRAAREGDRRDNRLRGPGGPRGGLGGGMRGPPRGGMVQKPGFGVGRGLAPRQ
# All sequences stand within: GGGAGUUCUACAGUCCGACGAUC … UGGAAUUCUCGGGUGUCAAGG
Sequence,log2 enrichment
AGUCCUGUGCUACACAUCGUAUGUACCGAAUCGGGGAGGGGUUUUUGGGGAAAGGGGAAAGUAUUAUGUUACGCCGUUCGGAUCUGCACU,0.443
ACCAUGCAGGUGGGCAUCUUUGGUAAGUGGGGCAAGGGGGGGAUAGGGAGGGGGGUAACACUUUGGGAACAGGUGGUCCCAGGUCGUUUC,0.979
CUGUGCUACACAUCGUAUGUACCGAAUCGGGCCCCCCGGGGCCCCCCGGGGCCCCCCGGGGAAAGUAUUAUGUUACGCCGUUCGGAUCUG,-1.26
CUCAAGUCCUGUGCUACACAUCGUAUGUACCGAAUCGGUGGUUUGGUUUUUGGAAAGUAUUAUGUUACGCCGUUCGGAUCUGCACUUCCA,-0.344
AGUCCUGUGCUACACAUCGUAUGUACCGAAUCGGUUUUUGGUUUUUGGAAAAAAAGGAAAGUAUUAUGUUACGCCGUUCGGAUCUGCACU,-1.32
CAAGUCCUGUGCUACACAUCGUAUGUACCGAAUCGGUUUGGGUUUGGGGUUUGGGGAAAGUAUUAUGUUACGCCGUUCGGAUCUGCACUU,-0.321
ACCAUGCAGGUGGGCAUCUUUGGGAAGUGGGGCAAGGGGGGGAUAGGGAGGGGGGUAACACUUUGGGAACAGGUGGUCACAGGUCGUUUC,1.78
CACAGACAACACGCACGCACACAGACACAGAGGGAAGGGGUUGGGAUGGGGACAGGGUGCACAGCAGGGCGGGGUAGGACCCCAGCCCCU,1.01
CCUGUGCUACACAUCGUAUGUACCGAAUCGGGGCCCCCCCGGCCCCCCCGGGCCCCCCCGGAAAGUAUUAUGUUACGCCGUUCGGAUCUG,-0.167

# Some of these lines once more (study 4):
Sequence,log2 enrichment
ACCAUGCAGGUGGGCAUCUUUGGGAAGUGGGGCAAGGGGGGGAUAGGGAGGGGGGUAACACUUUGGGAACAGGUGGUCACAGGUCGUUUC,1.78
AGUCCUGUGCUACACAUCGUAUGUACCGAAUCGGUUUUUGGUUUUUGGAAAAAAAGGAAAGUAUUAUGUUACGCCGUUCGGAUCUGCACU,-1.32
CUCAAGUCCUGUGCUACACAUCGUAUGUACCGAAUCGGUGGUUUGGUUUUUGGAAAGUAUUAUGUUACGCCGUUCGGAUCUGCACUUCCA,-0.344
